# Measured values of several laboratories.
# Parts stem from different laboratories: compare values within a part only.

# Sample 1 — technique: protein binding microarray; form: double-stranded DNA, one strand shown; medium: in vitro; tested at: not given; reference: not given; reading: higher = stronger binding
# Target: Histone acetyltransferase KAT6A, both winged helices, GST fusion (KAT6A, Homo sapiens, UniProt Q92794, residues 1-181)
# Setting: 8-mer, flanks averaged, mean of 2 arrays, mostly near background
# Residues (chain): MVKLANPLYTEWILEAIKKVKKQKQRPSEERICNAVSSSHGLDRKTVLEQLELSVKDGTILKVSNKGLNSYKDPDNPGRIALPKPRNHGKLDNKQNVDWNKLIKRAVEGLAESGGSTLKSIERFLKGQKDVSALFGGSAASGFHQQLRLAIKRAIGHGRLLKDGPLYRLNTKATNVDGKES
Oligonucleotide,E-score
CGGTTGCA,0.0895
AATGAAAG,-0.0802
TGGTCGAA,-0.228
CCGGCCTA,0.0812
AAAGTGTC,-0.0632
ACAGTGTC,-0.105
AAAGGGCC,-0.115
AAGAACAT,-0.119
GAACGGTA,0.131
CCGTTTGC,0.207
ATGCCTCC,-0.0317
ACTGTGCC,0.0457
AATACTCC,-0.124
CAAACATC,-0.0826
CTCTTTCC,-0.105
AGGGTCAA,-0.175
CGAGGCTA,-0.127
CTATTCGC,-0.0165
CGTCTTCC,0.0517
CAAGTCCA,-0.188
AGATTACA,-0.0329

# Sample 2 — technique: RNA Bind-n-Seq; form: RNA; medium: in vitro; tested at: not given; reference: input RNA pool; reading: higher = stronger binding
# Target: RING finger protein unkempt homolog, zinc fingers 1-6, GST-SBP tag (UNK, Homo sapiens, UniProt Q9C0B0, residues 30-357)
# Sequence of UniProt Q9C0B0 (30-357, looked up): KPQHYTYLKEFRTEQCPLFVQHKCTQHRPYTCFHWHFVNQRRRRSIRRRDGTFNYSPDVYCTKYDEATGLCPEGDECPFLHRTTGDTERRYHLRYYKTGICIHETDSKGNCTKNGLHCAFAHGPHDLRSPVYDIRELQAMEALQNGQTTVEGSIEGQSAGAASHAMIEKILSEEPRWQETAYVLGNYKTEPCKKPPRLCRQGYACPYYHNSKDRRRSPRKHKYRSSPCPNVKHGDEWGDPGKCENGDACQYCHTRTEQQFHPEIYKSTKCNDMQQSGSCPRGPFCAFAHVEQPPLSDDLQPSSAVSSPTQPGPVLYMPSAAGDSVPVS
# Setting: RNA with constant flanks, human-mouse chimeric sites, ends assumed
Oligonucleotide,bound/input enrichment
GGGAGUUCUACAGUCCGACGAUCCUGAGGAAUACCACUGAGAGACCUUAAAAGGAGUCAUUGAGGGCUCUGUUCGUGCAAGAAUAGUCACUGAUCGGGAAACUGGUUCUUCCAAAGGGUUUGGUUUUGUAGACUUUAAUAGUGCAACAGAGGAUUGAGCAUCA,0.873 ratio
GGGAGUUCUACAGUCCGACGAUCCGGAGCCCCUCCCUCUCACAGGCCCAAGAUAUAACCCACCAGUGCCUUUUGUCUUCCUGUCAGCUCUGUCAAUCACGCCUGUCCUCUGUCCCUCUCACCAAGUGCCCAAAGUGGGGAGGGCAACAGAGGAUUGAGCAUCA,0.467 ratio
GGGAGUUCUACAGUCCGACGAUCUACUCAACUUUCUUUCCACAUUUUGAAUUCCAAGACAUUAUUCCUCCAGAUGACUUCCUAACGAGUGAUGAAGAGCAAGAUUUGGUUUUAUUUGGAAGUUUGAGAGGACAAGUUGUUGGACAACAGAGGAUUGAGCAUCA,0.195 ratio
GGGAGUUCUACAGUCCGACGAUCCUGAGGAUACCACUGAAGAGACCUUAAAAGAAUCAUUUGAGGGCUCUGUUCGUGCAAGAAUAGUCACUGAUCGGGAAAACUGGGUCCCCAAAGGGUUUGGUUUUGUAGACUUUAAUAGUGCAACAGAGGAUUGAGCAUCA,0.704 ratio
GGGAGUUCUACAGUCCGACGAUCGCAAGAGAUGAUGAGGCGGCAGCUGUUGCCCUUUCCUCUCUCGUUCAUGCUUUGGAUGAGUUAAACAUGGUCGCCAUAGUUCGAUAUGCUUAUGACAAAAGAUCUAAUCCUCAAGUUGGUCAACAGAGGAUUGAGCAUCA,0.284 ratio
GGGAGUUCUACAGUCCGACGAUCAAAGAGUGGAUAGAGUGUGCACACGGGAUCGGUGGGACCCGGGCGAAAAAGGAGUGCAAGAUAGAGUUCGAUGACUUCGAAGAGUGCUUGCUUCGGCACAAAACGAUGAGACGUGCACAUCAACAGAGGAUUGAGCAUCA,0.267 ratio
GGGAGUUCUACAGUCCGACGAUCGCCACCAGAUCCCAGAAACAUGACUCUUGCAGCCUAUAAAGAGAAGAUGAAGGAGCUCCCGCUGGUGUCCUUGUUCUGCUCCUGCUUCCUGGCCGAUCCCCUGAAUAAGUCGUCCUACAACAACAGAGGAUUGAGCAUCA,0.278 ratio
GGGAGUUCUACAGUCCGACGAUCAGAGAUAAGACAUCCAGGAACAUGCGAGGCUCCCGGAUGAAUGGGUUGCCUAGCCCCACUCACAGCGCCCACUGUAGCUUCUACCGAACCAGAACCUUGCAGGCAUUGAGUAAUGAGAAGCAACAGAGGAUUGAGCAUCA,0.144 ratio

# Sample 3 — technique: RNA Bind-n-Seq; form: RNA; medium: in vitro; tested at: 365 nM; reference: no-protein control; reading: higher = stronger binding
# Target: RNA binding protein fox-1 homolog 2, RRM domain, GST-SBP tag (RBFOX2, Homo sapiens, UniProt O43251-10, residues 100-194)
# Setting: natural RNA segment, single round, ends assumed
# Residues (chain): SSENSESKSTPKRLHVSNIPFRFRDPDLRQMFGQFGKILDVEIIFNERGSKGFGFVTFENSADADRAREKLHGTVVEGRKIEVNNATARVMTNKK
Oligonucleotide,RBNS enrichment (R)
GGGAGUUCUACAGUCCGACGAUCUUGUAUAACUCAGGCGUCUUUGCAUUUCUGCGAAAGAUCAAGGUCUGCAAGGGAAUUCUUGUGUGCUGCUUUCCAUUUGACACCGCAGUUCUGUUCAGCCAUCAGAAGAGUGGAAUUCUCGGGUGCCAA,0.443
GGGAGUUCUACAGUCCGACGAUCGGCUUGUGCCACUCAAACACUAGUGAAAGGGUAUGUACAACCGCAACAUCAGGCCAGGACACCAUUUAUUUAACCAAGUAAUGGAGGAGAGUGAAACAUUUUCCAAGGCCUGGAAUUCUCGGGUGCCAA,0.209
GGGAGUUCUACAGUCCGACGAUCGGGGACAAACUCAGGGCAGCCCUGUCCAGGUAGAAAUAUUUUUGCCCCCCUGUCUGAUGUUGAUGAGGGGUCAUACCAGCCAGGGAGACCCUCUGGGAGGAAGCUGCCACUGGAAUUCUCGGGUGCCAA,0.468
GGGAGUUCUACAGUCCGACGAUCUCUUGCCAACAACUGCAGAUGGUAACAGCUAUCAGUAUGCCUUCAGUCAGUCUUCCUUGAAUCUACCCAUCUCCUUAUACACACACUCACACACUCACACUCUCUAUGUCUGGAAUUCUCGGGUGCCAA,1.23
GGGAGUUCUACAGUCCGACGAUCAAAGUUGAGACUACUCAAUCCAGUUAACAACAGCAGGAGCACUAGAGUUUGUUCAUUUAUUCUCUCUGUAAAACAAGCUGUGCUUUUUUUCUUCUGCCUUUAAAAUGCCAUGGAAUUCUCGGGUGCCAA,0.578
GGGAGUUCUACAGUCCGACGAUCGCCAGGCAGUUGCAGCUGAUGAUGUAAAUAUUUUGUACAGUAGAUAAAUAAAUGUUUAAAAGAACUAGGAGUGAGUGGCUGCUUUAAAUGGAGAUUCAUGGCUUGACUGGUGGAAUUCUCGGGUGCCAA,0.994
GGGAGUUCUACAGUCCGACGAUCUGGGGCAGUCUGACUUCACUUUAGUGUAUGACGUCUGUAGCCAAUGGGAACGUGAAAUAUUGGUGCGAUCACUGAACCAAAGGGAUUGUGUUCUGUGACUUUGGUACUUUUGGAAUUCUCGGGUGCCAA,1.22
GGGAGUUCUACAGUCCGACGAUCUGACAACAGGUGUGUACCACCACUCCUGACUUCCCUGCCCAAACUUCAUAUCCUACUUGUUAAUAGCCGUCUUCUCCCUCUGUCAUCUACCCAGAGCAUUCAGCUUGGGAUGGAAUUCUCGGGUGCCAA,1.06

# Sample 4 — technique: protein-binding microarray; form: double-stranded DNA, one strand shown; medium: in vitro; tested at: 250 nM; setting: 60-bp whole probe; together with: salmon DNA 0.4 mg/ml; reference: random background probes; reading: higher = stronger binding; shared flanks, not repeated: GCCTAGCAC … GTCTTGATTCGCTTGACGCTGCTG
# Target: Interferon regulatory factor 5, full length, phosphomimetic (IRF5, Homo sapiens, UniProt Q13568-2, residues 1-514, K96S/S451D/S453D/S456D/S462D)
Oligonucleotide,log fluorescence [z-score]
TTGGGTCTCGGTCTCGGTTAGTGCTAG,0.553
TTAGTTCTCGGTATCGGTTAGTGCTAG,5.27
TTAGGTCTCGGACAGGGTTAGTGCTAG,-0.316
GACGGCCTCGGACTGGGGACGTGCTAG,-0.661
GACGGTTTCGGGTATCGGGGCGTGCTA,7.82
TTAGGACTGCGTCTCGGTTAGTGCTAG,-0.273
TTAGATATCAGTATCGTTTAGTGCTAG,4.73
TTAGGTATCCTTCTCCTCTAGTGCTAG,0.237
TCACCTCTCACCTCGGCACTGTGCTAG,0.0296
TTAGGTCTCGGACTGGTTTAGTGCTAG,-0.244
TCATCTTTTTTTCTTTTACTGTGCTAG,1.79
TACGGTATCCTACTGCTGACGTGCTAG,-0.308
TTAGGTTTCCGTTTCCTTTAGTGCTAG,2.26
AGTATGTTCCTTATTTAAGAGTGCTAG,0.293
GACGTTCTCAGTTTCGAGACGTGCTAG,4.65
GGAGGCCTCTTCATTCATTAAGTGCTA,-0.172
GGTCTTCTGGACTGTTTGGTCGTGCTA,-0.436
ATGGTCCTCTCTCTATTCAGGTGCTAG,-0.0505
GACGGTAGCGGACTGGGGACGTGCTAG,-0.352
